Measured values collected from several papers.
Every numbered part comes from another study and shows a few of its results, in no order.
Sequence of UniProt Q14164 (whole entry, looked up): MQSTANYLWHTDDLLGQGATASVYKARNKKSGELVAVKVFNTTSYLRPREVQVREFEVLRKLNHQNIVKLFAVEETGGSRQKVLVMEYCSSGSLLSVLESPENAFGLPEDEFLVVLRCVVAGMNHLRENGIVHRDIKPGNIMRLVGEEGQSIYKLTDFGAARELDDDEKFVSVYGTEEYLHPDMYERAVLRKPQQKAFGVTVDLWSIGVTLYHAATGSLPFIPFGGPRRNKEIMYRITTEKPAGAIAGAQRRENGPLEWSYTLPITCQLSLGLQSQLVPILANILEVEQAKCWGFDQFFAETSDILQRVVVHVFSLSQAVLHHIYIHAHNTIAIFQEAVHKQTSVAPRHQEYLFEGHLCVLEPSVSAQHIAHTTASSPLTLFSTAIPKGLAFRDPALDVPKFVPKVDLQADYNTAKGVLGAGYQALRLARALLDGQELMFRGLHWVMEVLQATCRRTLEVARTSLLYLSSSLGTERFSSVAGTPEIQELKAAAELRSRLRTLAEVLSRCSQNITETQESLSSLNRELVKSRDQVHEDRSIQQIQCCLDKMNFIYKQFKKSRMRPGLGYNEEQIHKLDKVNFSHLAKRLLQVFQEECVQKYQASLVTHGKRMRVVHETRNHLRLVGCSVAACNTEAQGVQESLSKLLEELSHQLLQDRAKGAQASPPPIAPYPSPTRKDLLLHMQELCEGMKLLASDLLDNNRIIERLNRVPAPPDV
Sequence of UniProt Q9Y2H1 (whole entry, looked up): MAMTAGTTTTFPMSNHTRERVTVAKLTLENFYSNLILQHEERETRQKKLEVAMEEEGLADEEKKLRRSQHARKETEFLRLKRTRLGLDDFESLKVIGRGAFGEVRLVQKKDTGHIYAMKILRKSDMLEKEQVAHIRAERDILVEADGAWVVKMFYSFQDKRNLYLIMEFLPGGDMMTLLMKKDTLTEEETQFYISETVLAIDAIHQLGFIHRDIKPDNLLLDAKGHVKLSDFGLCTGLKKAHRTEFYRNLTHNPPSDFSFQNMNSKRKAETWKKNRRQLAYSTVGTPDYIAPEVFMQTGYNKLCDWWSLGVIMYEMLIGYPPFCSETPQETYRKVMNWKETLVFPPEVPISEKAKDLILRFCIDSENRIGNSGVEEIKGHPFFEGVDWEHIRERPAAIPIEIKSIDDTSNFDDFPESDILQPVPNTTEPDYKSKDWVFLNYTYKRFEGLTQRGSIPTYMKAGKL
Sequence of UniProt Q9UBE8 (whole entry, looked up): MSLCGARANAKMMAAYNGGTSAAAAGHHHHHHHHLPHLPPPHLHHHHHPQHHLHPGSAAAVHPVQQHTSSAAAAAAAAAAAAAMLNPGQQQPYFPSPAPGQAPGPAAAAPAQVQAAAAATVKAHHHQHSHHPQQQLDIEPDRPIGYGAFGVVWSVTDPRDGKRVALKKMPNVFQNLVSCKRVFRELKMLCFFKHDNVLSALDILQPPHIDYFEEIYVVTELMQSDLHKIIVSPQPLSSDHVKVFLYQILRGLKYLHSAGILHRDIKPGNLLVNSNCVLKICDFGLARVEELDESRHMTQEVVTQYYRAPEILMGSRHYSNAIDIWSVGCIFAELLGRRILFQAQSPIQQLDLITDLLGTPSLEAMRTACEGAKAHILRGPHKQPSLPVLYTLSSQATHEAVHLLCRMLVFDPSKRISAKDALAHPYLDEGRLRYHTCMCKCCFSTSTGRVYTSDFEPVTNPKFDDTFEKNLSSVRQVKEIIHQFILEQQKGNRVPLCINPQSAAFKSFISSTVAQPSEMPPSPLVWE
Sequence of UniProt P21709 (whole entry, looked up): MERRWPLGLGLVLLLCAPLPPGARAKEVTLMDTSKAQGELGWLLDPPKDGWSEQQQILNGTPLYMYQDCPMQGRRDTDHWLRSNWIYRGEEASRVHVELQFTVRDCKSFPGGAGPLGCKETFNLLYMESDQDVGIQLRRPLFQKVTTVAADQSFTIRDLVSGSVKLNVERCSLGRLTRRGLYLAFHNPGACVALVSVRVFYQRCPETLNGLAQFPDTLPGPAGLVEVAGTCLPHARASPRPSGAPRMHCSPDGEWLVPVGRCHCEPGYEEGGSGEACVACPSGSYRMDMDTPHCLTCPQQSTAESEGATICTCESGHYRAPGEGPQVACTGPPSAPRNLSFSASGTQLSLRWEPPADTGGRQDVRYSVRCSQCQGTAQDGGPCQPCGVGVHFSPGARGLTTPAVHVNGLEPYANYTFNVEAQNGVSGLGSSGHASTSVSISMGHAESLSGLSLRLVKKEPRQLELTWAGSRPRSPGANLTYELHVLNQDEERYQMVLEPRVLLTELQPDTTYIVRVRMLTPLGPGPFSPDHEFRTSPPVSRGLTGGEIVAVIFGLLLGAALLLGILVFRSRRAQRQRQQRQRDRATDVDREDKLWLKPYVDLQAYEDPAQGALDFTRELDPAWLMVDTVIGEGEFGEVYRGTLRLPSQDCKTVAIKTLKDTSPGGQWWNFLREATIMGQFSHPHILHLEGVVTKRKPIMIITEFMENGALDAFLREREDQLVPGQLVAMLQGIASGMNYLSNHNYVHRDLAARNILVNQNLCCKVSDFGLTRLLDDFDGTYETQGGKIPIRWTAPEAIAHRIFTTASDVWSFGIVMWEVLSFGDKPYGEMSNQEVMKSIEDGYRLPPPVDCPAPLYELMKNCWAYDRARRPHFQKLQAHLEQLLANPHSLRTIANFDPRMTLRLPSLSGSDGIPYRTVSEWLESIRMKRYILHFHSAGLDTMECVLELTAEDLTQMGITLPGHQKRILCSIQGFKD
Sequence of UniProt Q8N568 (whole entry, looked up): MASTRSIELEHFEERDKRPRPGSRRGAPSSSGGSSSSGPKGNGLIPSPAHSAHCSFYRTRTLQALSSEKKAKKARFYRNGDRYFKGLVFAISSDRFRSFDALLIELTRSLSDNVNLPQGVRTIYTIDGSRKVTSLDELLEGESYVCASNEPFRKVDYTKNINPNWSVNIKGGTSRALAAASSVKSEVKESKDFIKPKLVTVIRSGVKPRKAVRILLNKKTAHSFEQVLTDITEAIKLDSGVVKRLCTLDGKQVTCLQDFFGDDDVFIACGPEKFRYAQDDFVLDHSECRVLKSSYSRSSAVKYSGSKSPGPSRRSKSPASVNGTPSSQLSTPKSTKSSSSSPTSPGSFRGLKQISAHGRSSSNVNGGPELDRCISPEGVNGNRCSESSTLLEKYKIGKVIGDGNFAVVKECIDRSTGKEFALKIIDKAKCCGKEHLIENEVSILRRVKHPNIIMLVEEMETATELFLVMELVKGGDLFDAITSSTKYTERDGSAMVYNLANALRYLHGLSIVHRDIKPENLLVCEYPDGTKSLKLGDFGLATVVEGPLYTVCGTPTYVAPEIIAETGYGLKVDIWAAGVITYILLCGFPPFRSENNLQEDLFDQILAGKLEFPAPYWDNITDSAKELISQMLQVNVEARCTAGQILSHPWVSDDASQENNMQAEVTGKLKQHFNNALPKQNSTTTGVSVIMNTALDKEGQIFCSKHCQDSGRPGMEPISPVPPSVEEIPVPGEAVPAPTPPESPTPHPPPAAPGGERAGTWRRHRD
Sequence of UniProt Q13554 (whole entry, looked up): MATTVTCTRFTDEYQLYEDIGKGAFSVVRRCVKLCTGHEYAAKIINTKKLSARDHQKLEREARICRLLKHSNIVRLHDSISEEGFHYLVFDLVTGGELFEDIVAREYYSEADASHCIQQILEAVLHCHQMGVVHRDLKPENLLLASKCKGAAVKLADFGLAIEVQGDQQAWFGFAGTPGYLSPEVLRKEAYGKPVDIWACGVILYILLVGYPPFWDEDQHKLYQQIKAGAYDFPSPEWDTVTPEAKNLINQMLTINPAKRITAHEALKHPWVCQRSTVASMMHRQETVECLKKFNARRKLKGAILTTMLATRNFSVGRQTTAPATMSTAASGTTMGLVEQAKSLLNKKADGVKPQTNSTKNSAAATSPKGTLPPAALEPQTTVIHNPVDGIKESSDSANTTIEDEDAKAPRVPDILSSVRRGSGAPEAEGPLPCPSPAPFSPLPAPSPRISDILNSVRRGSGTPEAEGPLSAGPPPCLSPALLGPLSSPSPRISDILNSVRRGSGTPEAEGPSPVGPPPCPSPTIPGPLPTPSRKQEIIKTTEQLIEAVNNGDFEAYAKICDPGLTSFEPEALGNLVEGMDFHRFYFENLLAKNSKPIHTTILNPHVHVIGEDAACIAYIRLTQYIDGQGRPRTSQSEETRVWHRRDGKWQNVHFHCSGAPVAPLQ

Sample 1
SMILES: CC(C)n1cnc(-c2ccc(F)cc2)c1-c1ncc(C(=O)Nc2ccc(N3CCN(C)CC3)cc2)[nH]1
Method: phase 2a trial
Host: idiopathic pulmonary fibrosis patients
dose	notes	patients with paronychia [%]
30 mg once daily	grade 4 emergent event	0
60 mg once daily	grade 4 emergent event	0
60 mg once daily	grade 3 emergent event	0
30 mg once daily	grade 3 emergent event	0
30 mg once daily	grade 1 emergent event	0
60 mg once daily	grade 5 emergent event	0
all arms pooled	grade 1 emergent event	0
all arms pooled	grade 5 emergent event	0
30 mg once daily	grade 2 emergent event	0

Sample 2
SMILES: COc1cc(-c2cn(C3CCc4ccccc4N(CC(F)(F)F)C3=O)nn2)ccc1-n1ccc(C)n1 (centres unmarked)
Method: competition with immobilised ligand
Concentration: 1 µM
target	effect on	remaining binding [%]
Serine/threonine-protein kinase DCLK2 (DCLK2, Homo sapiens, UniProt Q8N568)	cell-free assay	92
Dual specificity protein kinase CLK2 (CLK2, Homo sapiens, UniProt P49760)	cell-free assay	100
Receptor-type tyrosine-protein kinase FLT3 (FLT3, Homo sapiens, UniProt P36888, ITD)	cell-free assay	98
Ephrin type-A receptor 1 (EPHA1, Homo sapiens, UniProt P21709)	cell-free assay	89
Receptor-type tyrosine-protein kinase FLT3 (FLT3, Homo sapiens, UniProt P36888, K663Q)	cell-free assay	100
Casein kinase I isoform epsilon (CSNK1E, Homo sapiens, UniProt P49674)	cell-free assay	100
Epidermal growth factor receptor (EGFR, Homo sapiens, UniProt P00533, del747-752/P753S)	cell-free assay	100
Serine/threonine-protein kinase VRK2 (VRK2, Homo sapiens, UniProt Q86Y07)	cell-free assay	100
Serine/threonine-protein kinase N2 (PKN2, Homo sapiens, UniProt Q16513)	cell-free assay	98
Calcium/calmodulin-dependent protein kinase type IV (CAMK4, Homo sapiens, UniProt Q16566)	cell-free assay	100
cGMP-dependent protein kinase 2 (PRKG2, Homo sapiens, UniProt Q13237)	cell-free assay	85
Myosin-IIIa (MYO3A, Homo sapiens, UniProt Q8NEV4)	binding	100
Calcium/calmodulin-dependent protein kinase type II subunit beta (CAMK2B, Homo sapiens, UniProt Q13554)	cell-free assay	97
Inhibitor of nuclear factor kappa-B kinase subunit epsilon (IKBKE, Homo sapiens, UniProt Q14164)	cell-free assay	68
Wee1-like protein kinase 2 (WEE2, Homo sapiens, UniProt P0C1S8)	cell-free assay	100
Myosin-IIIb (MYO3B, Homo sapiens, UniProt Q8WXR4)	binding	100
Dual specificity mitogen-activated protein kinase kinase 6 (MAP2K6, Homo sapiens, UniProt P52564)	cell-free assay	100
Receptor-type tyrosine-protein kinase FLT3 (FLT3, Homo sapiens, UniProt P36888, D835Y)	cell-free assay	92
Tyrosine-protein kinase ABL1, phosphorylated (ABL1, Homo sapiens, UniProt P00519)	cell-free assay	75

Sample 3
Target: Myotonin-protein kinase (DMPK, Homo sapiens, UniProt Q09013)
Sequence of UniProt Q09013 (whole entry, looked up): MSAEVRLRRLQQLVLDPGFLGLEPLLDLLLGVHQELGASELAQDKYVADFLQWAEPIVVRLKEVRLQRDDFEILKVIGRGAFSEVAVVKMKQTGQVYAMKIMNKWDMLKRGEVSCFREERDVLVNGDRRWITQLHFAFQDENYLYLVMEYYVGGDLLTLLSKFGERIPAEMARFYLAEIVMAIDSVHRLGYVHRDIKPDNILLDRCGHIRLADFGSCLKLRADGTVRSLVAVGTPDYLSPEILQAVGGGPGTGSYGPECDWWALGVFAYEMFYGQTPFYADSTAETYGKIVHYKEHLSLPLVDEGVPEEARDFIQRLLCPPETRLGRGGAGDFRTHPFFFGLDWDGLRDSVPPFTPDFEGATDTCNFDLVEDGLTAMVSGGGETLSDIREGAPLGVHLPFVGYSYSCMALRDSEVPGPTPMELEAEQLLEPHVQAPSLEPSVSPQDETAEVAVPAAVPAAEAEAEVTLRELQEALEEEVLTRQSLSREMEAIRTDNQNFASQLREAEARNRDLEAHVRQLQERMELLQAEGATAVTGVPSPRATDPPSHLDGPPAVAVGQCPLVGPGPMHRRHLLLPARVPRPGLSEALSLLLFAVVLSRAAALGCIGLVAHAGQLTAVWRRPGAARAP
Effect on: enzyme activity
Action: inhibitor
Concentration: 0.5 µM
Reference: control
SMILES	remaining activity
COc1cc2ncnc(Nc3cccc(Cl)c3)c2cc1OC	102%
CCN(CC)CCNC(=O)c1c(C)[nH]c(/C=C2\C(=O)Nc3ccc(Cl)cc32)c1C	102%
CCN(CC)C(=O)c1ccc(Nc2nc(OCC3CCCCC3)c3[nH]cnc3n2)cc1	105%
CCN(CC)CCNC(=O)c1c(C)[nH]c(/C=C2\C(=O)Nc3ccc(F)cc32)c1C	97.7%
C[C@@H]1CCN(C(=O)CC#N)C[C@@H]1N(C)c1ncnc2[nH]ccc12	108%
c1ccc(-c2[nH]ncc2-c2ccnc3ccccc23)nc1	106%
COc1cc2ncnc(Nc3ccc(O)c(Br)c3)c2cc1OC	101%
Ic1cccc(CSc2nnc(-c3ccncc3)o2)c1	105%
Cc1nc2cc3nc(-c4cccs4)cnc3cc2n1C	100%
O=C1c2ccccc2-c2n[nH]c3cccc1c23	99%
O=C(NC(NC(=S)Nc1ccc(F)c([N+](=O)[O-])c1)C(Cl)(Cl)Cl)C(c1ccccc1)c1ccccc1 (centres unmarked)	85.5%
O=C(Nc1cccc(Nc2nccc(Nc3cccc(C(F)(F)F)c3)n2)c1)C1CC1	101%
CCOc1nc(NC(=O)Cc2cc(OC)ccc2OC)cc(N)c1C#N	99.5%
COc1cc2c(cc1OC)-c1[nH]nc(Nc3cccc(F)c3)c1C2	109%
N#Cc1c(NC(=O)c2cccc3ccccc23)sc2c1CCCC2	109%
Cc1cn(-c2cc(NC(=O)c3ccc(C)c(Nc4nccc(-c5cccnc5)n4)c3)cc(C(F)(F)F)c2)cn1	98.1%
Nc1cccc(-c2cc3c(Oc4cccc(O)c4)ncnc3[nH]2)c1	95.2%
c1ccc(-c2cnc(Nc3ccc(OCCN4CCCC4)cc3)s2)cc1	110%
N#C/C(=C\c1ccc(O)c(O)c1)C(=O)NCc1ccccc1	99.7%
O=c1cc(-c2cccc3c2Sc2ccccc2S3)oc(N2CCOCC2)c1	94.8%
CN(C)C[C@H]1CCn2c(c(C3=C(c4cn(C)c5ccccc45)C(=O)NC3=O)c3ccccc32)C1	106%
O=C1C(Cl)=C(N2C(=O)CCC2=O)C(=O)c2ccccc21	98.5%
Cn1nc2c3c(cccc31)C(=O)c1ccccc1-2	107%
Cc1cc2ncc(-c3ccccc3)nc2cc1C	102%
CN([C@@H](Cc1ccc(OS(=O)(=O)c2cccc3cnccc23)cc1)C(=O)N1CCN(c2ccccc2)CC1)S(=O)(=O)c1cccc2cnccc12	108%

Sample 4
SMILES: CC#CC(=O)N1CCC[C@H]1c1nc(-c2ccc(C(=O)Nc3ccccn3)cc2)c2c(N)nccn12
Effect on: enzyme activity
Action: inhibitor
Concentration: 1 µM
target	inhibition [%]
Inhibitor of nuclear factor kappa-B kinase subunit epsilon (IKBKE, Homo sapiens, UniProt Q14164)	10
Serine/threonine-protein kinase NLK (NLK, Homo sapiens, UniProt Q9UBE8)	0
Mitogen-activated protein kinase 10 (MAPK10, Homo sapiens, UniProt P53779)	19
Serine/threonine-protein kinase D1 (PRKD1, Homo sapiens, UniProt Q15139)	1
Tyrosine-protein kinase ABL1, phosphorylated (ABL1, Homo sapiens, UniProt P00519, M351T)	0
Serine/threonine-protein kinase WNK4 (WNK4, Homo sapiens, UniProt Q96J92)	37
Serine/threonine-protein kinase TNNI3K (TNNI3K, Homo sapiens, UniProt Q59H18)	55
Serine/threonine-protein kinase 38-like (STK38L, Homo sapiens, UniProt Q9Y2H1)	0
Ephrin type-A receptor 7 (EPHA7, Homo sapiens, UniProt Q15375)	8
Proto-oncogene tyrosine-protein kinase receptor Ret (RET, Homo sapiens, UniProt P07949, V804M)	15
5'-AMP-activated protein kinase catalytic subunit alpha-1 (PRKAA1, Homo sapiens, UniProt Q13131)	0
Bone morphogenetic protein receptor type-1B (BMPR1B, Homo sapiens, UniProt O00238)	36
Homeodomain-interacting protein kinase 3 (HIPK3, Homo sapiens, UniProt Q9H422)	0
Hepatocyte growth factor receptor (MET, Homo sapiens, UniProt P08581, Y1235D)	0
Calcium/calmodulin-dependent protein kinase type 1G (CAMK1G, Homo sapiens, UniProt Q96NX5)	16
